Values quoted from earlier work that unrelated publications cite.
Each numbered part shows a few of the values that one paper quotes.

Set 1 — organism: Escherichia coli; form: peptide; strain: DH5α
With `RGTCYNRVGLIIRNFSKLKGKKV` the MIC was 13 µM.
`SVIWRKLFFIFIKRSGNWIKKVEKRQNLL` gave an MIC of 1 µM.
`GINLKRKGNIMKKVKNIFHKIANADPMIWGYVMLSESK` has an MIC of 5 µM.
With `KQKTLKKVWKLSEKVLIFASAFAKKAGAAEATLVL` the MIC was 2 µM.

Further values, each from its own experiment
B1: CCL1; sequence looked up; chain KSMQVPFSRCCFSFAEQEIPLRAILCYRNTSSICSNEGLIFKLKRGKEACALDTVGWVQRHRKMLRHCPSKRK
`LAGGGSASSSADAAAFR` — result for “retention coefficient S”: 22.4 (isocratic RP-HPLC, C18 column; peptide, water/acetonitrile, 0.1% TFA; 25 °C).
`B1 (CCL1)` has an EC50 of 4 nM (CCR8 F84A mutant; IP accumulation, agonist).
`LAGGSASSAHAAFR` — result for “retention coefficient S”: 22.2 (isocratic RP-HPLC, C18 column; peptide, water/acetonitrile, 0.1% TFA; 25 °C).
`pegcetacoplan` has an AUC(0-last) of about 193000 µg·h/mL (human; 90 mg/day for 28 days, approximate).

Excerpt of the above (further values, each from its own experiment):
`LAGGSASSAHAAFR` — result for “retention coefficient S”: 22.2 (isocratic RP-HPLC, C18 column; peptide, water/acetonitrile, 0.1% TFA; 25 °C).
